Measurements collected from several papers.
Each numbered part is a random draw from the data of one study; scales do not carry over between parts.
UniProt Q9Y6R4, sequence (whole entry, looked up): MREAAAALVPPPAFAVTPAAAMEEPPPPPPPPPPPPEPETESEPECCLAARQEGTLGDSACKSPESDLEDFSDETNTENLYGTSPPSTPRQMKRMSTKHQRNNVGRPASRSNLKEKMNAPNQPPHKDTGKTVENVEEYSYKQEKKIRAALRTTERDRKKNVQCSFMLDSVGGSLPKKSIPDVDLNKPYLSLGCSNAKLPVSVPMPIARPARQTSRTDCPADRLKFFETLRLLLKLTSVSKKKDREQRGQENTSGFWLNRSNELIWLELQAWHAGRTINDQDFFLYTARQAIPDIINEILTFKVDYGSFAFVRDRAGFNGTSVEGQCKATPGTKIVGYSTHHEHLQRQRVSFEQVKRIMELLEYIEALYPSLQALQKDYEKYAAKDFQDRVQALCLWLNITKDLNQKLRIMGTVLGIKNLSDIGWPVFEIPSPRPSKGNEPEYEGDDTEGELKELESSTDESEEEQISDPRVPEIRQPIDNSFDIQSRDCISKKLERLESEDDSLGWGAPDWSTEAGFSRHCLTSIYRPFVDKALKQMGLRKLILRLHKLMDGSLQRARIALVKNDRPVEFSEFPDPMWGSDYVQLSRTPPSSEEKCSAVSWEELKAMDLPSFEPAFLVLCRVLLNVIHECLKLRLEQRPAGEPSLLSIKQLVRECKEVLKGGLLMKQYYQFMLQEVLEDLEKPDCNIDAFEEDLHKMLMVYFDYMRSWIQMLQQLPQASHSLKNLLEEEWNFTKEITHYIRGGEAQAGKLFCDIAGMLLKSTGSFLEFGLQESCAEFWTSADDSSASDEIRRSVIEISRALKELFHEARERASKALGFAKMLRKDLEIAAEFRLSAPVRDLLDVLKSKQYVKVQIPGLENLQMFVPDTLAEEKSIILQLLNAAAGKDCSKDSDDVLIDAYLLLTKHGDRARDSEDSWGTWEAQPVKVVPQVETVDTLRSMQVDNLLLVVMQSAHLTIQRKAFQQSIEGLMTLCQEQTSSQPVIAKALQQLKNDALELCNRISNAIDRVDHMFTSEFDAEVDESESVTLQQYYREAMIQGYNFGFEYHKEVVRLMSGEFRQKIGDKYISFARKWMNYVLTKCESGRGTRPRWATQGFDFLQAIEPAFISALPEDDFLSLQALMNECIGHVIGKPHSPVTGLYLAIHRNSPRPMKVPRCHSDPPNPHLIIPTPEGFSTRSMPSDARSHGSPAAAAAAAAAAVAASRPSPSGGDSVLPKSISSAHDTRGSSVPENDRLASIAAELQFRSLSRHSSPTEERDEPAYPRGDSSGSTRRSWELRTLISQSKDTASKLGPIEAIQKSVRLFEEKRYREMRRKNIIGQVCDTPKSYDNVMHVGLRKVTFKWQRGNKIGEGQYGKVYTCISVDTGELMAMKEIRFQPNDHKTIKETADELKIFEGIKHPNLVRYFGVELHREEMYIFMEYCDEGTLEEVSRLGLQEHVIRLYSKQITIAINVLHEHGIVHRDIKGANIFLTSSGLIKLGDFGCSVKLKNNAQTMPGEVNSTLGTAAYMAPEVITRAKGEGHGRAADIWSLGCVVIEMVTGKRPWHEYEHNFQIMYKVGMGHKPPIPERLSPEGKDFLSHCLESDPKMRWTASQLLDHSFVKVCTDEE
UniProt Q9H0K1, sequence (whole entry, looked up): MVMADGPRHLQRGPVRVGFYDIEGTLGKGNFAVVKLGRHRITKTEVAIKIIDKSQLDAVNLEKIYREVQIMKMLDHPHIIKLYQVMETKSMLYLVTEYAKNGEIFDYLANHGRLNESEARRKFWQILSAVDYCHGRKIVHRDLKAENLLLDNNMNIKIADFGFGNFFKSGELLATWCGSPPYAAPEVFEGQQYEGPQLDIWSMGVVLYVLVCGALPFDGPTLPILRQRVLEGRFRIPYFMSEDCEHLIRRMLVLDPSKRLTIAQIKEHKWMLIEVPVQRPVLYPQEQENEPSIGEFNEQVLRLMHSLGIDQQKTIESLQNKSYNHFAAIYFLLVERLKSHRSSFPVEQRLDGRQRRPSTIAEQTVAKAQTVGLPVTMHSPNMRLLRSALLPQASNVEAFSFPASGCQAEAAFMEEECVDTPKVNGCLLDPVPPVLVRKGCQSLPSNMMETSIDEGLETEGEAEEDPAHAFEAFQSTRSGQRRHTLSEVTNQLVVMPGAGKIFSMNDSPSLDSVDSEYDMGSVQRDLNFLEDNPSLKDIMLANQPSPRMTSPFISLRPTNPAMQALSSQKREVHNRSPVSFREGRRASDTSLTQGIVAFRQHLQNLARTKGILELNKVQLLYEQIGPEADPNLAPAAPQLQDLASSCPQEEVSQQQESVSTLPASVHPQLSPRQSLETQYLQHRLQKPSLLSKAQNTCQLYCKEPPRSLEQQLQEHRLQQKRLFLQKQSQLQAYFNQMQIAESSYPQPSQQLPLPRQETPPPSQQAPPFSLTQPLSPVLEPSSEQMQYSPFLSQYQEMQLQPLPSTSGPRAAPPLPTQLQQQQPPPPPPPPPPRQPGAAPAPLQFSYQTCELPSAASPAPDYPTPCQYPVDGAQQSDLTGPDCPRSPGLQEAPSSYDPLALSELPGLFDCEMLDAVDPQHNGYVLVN
UniProt P30291, sequence (whole entry, looked up): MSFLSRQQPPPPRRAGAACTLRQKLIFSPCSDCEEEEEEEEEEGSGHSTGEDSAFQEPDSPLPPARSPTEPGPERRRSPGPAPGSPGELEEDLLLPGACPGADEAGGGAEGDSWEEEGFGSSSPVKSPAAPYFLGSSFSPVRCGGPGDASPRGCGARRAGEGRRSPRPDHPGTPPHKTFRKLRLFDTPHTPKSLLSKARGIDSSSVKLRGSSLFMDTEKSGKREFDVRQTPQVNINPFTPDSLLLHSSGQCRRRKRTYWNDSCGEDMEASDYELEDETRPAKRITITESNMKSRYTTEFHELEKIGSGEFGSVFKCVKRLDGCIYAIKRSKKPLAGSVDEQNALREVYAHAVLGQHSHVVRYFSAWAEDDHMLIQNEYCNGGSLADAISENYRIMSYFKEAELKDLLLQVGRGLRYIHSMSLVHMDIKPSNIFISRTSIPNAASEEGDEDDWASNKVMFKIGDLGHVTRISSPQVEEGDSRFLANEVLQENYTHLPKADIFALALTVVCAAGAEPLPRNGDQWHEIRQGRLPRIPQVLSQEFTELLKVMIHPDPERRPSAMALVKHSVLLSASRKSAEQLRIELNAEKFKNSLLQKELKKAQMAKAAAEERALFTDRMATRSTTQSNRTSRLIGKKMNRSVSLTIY
UniProt O00238, sequence (whole entry, looked up): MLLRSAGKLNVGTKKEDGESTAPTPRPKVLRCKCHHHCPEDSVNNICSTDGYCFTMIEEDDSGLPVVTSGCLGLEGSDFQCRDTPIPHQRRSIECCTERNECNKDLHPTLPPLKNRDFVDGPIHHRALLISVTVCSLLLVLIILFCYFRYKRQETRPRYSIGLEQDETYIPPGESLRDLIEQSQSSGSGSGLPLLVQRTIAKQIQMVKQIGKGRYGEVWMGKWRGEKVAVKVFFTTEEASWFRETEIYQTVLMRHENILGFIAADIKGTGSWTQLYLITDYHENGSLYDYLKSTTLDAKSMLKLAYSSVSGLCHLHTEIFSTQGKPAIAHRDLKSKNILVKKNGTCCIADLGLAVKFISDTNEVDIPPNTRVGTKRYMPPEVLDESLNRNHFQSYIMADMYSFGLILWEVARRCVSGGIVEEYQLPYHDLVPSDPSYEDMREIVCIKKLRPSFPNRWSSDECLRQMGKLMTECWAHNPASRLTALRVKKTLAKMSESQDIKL

Series 1
Species: mouse
Sample: microsomes or S9
Tested at: 2 µM
Time: 0.5 h
Endpoint: remaining compound
Compound = Cc1noc(C)c1CCC(=O)Nc1cccc2ncccc12; value = 67.6%
Compound = COc1cc2c(cc1OC)/C(=N\c1ccccc1)N(Cc1ccc(F)c(F)c1)CC2; value = 0.125%
Compound = COc1cc(OC)c(-c2[nH]nc3c2C(=O)CCC3)cc1OC; value = 27.1%
Compound = COc1cc(NC(=O)c2c(OC)cc(=O)n3c2CCCC3)cc(OC)c1OC; value = 94.2%
Compound = CN(C)C(=O)c1sc(Cl)nc1S(N)(=O)=O; value = 54.2%

Series 2
Compound: CN([C@@H]1CCc2c(CC(=O)O)c3ccccc3n2C1)S(=O)(=O)c1ccc(F)cc1
Read-out: cell-free assay
Method: competition with immobilised ligand
Tested at: 1 µM
Endpoint: remaining binding
target = MAP3K4 (Homo sapiens, UniProt Q9Y6R4); value = 87%
target = CDC42BPB (Homo sapiens, UniProt Q9Y5S2); value = 100%
target = SIK2 (Homo sapiens, UniProt Q9H0K1); value = 99%
target = BMPR1B (Homo sapiens, UniProt O00238); value = 100%
target = FLT3 (Homo sapiens, UniProt P36888, D835V/ITD); value = 95%
target = WEE1 (Homo sapiens, UniProt P30291); value = 100%

Series 3
Target: Serine/threonine-protein kinase PAK 4 (PAK4, Homo sapiens, UniProt O96013)
UniProt O96013, sequence (whole entry, looked up): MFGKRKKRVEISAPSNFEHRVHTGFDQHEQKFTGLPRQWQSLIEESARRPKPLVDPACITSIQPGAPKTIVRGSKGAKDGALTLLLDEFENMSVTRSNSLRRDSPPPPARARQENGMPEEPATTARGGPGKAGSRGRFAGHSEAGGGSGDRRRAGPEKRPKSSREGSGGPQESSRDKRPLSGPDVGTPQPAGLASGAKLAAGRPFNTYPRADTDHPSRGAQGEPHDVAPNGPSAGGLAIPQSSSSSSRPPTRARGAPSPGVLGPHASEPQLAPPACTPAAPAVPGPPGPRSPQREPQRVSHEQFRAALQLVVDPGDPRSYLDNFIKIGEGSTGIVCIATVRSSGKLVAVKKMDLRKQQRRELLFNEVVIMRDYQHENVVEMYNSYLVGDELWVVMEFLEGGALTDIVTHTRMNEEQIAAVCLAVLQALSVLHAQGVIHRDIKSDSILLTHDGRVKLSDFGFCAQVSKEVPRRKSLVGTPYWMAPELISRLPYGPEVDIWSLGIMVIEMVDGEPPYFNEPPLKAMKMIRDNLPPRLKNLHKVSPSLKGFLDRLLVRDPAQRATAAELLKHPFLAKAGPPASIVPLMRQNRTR
Read-out: enzyme activity
Mode: inhibitor
Tested at: 0.5 µM
Baseline: control
Endpoint: remaining activity
SMILES = O=C(Nc1cccc(Nc2cc(Nc3cccc(C(F)(F)F)c3)ncn2)c1)C1CC1; value = 103%
SMILES = NCCNc1ncc(C(N)=O)c(Nc2cccc(C(F)(F)F)c2)n1; value = 69.3%
SMILES = COc1cc2nccc(Oc3ccc(NC(=S)NC(=O)c4ccccc4C)cc3)c2cc1OC; value = 100%
SMILES = Nc1ncnc2n[nH]c(Nc3ccc(F)cc3)c12; value = 104%
SMILES = Nc1[nH]nc2nc3ccccc3nc12; value = 104%
SMILES = COc1ccc(OC)c2c(=S)c3ccccc3[nH]c12; value = 102%
SMILES = COc1ccc(C(=O)Nc2sc3c(c2C(N)=O)CCCC3)cc1OC; value = 95.9%
SMILES = COc1cc2ncnc(Nc3ccc(Oc4ccccc4)cc3)c2cc1OC; value = 98.3%
SMILES = Nc1ccc2ncnc(NCCc3ccc(Oc4ccccc4)cc3)c2c1; value = 105%
SMILES = Cn1sc(=O)n(Cc2ccccc2)c1=O; value = 104%
SMILES = Cc1cccc(-c2[nH]c(C(C)(C)C)nc2-c2ccc3c(c2)OCO3)n1; value = 77.5%
SMILES = N#CC(C#N)=C(N)/C(C#N)=C/c1ccc(O)cc1; value = 85.6%
SMILES = O=C1NC(=O)C(c2cn(CCCn3ccnc3)c3ccccc23)=C1Nc1ccccc1; value = 97.8%
SMILES = CC(C)[C@H](CO)Nc1nc(Nc2cc(N)cc(Cl)c2)c2ncn(C(C)C)c2n1; value = 102%

Series 4
Read-out: AlphaScreen signal
Method: AlphaScreen counter screen
Sample: His6 peptide without bromodomain
Tested at: 50 µM
Notes: assay interference check
Endpoint: inhibition
Compound = CC(C)(C)c1cc(NC(=O)Nc2ccc(-c3cn4c(n3)sc3cc(OCCN5CCOCC5)ccc34)cc2)no1; value = 61.6%
Compound = CCOc1ccc(NC(=S)Nc2ccc3nc[nH]c(=O)c3c2)cc1; value = 23.2%
Compound = CC1(COc2ccc3c(c2)ncn3-c2ccc3cccc(N4CCC(N)CC4)c3n2)COC1; value = 14.9%
Compound = O=c1c2ccccc2[nH]c(=S)n1CCN1CCC(=C(c2ccc(F)cc2)c2ccc(F)cc2)CC1; value = 39.6%
Compound = O=C1NC(=O)C(=Cc2ccc(-c3ccccc3[N+](=O)[O-])o2)S1; value = 41.5%
Compound = CCN(CC)CCNc1ccc(NCCN(CC)CC)c2c1C(=O)c1ccccc1C2=O; value = 67.8%
Compound = Cc1cc2c(F)c(Oc3ncnn4cc(OC[C@@H](C)O)c(C)c34)ccc2[nH]1; value = 26.8%
Compound = NC1(c2ccc(-c3nc4ccn5c(=O)[nH]nc5c4cc3-c3ccccc3)cc2)CCC1; value = 25.4%

For quick reference, copied from above (series 3):
SMILES = NCCNc1ncc(C(N)=O)c(Nc2cccc(C(F)(F)F)c2)n1; value = 69.3%
SMILES = COc1cc2nccc(Oc3ccc(NC(=S)NC(=O)c4ccccc4C)cc3)c2cc1OC; value = 100%
SMILES = Nc1ncnc2n[nH]c(Nc3ccc(F)cc3)c12; value = 104%
SMILES = Nc1[nH]nc2nc3ccccc3nc12; value = 104%
